Results gathered from unrelated publications.
Protocols differ between the studies behind these lines. Numbers after ± are the reported error.

SMILES = COc1cc(CNC(=O)C[C@H](C)CCC=C(C)C)ccc1OCc1cn(-c2ccccc2F)nn1; tested on = RXF 393; test = SRB; conditions = 10 µM, 48 h; measurement = growth percent; result = 38.4%
SMILES = CN(C)c1ccc(-c2oc3ccccc3c(=O)c2OCc2ccccc2)cc1; test system = diabetic rat; conditions = 5 mg/kg, day 28, p-nitrophenyl β-glucoside induced; measurement = blood glucose; result = 138 ± 4.89 mg/dL
SMILES = Cc1cnc(Nc2cc(C)c(C)c(C)c2)nc1Nc1ccc2oc(=O)[nH]c2c1; test = measured: phospho-STAT3; test system = rat, OVA asthma model, whole lung homogenate; conditions = intratracheal, dose not given, 2 h after OVA challenge; scale = relative to: OVA vehicle; measurement = STAT3 phosphorylation; result = inhibited
SMILES = COc1cc(F)c([C@@H]2CNC(=O)[C@H]2NC(=O)Nc2ccccc2)c(F)c1; test = flow cytometry; test system = mouse, myocardial infarction (LAD ligation), heart; conditions = 3 mg/kg, 72 h; scale = relative to: vehicle; measurement = CD206- of CD64+ macrophages; result = -60%
SMILES = O=c1c(OCc2ccccc2)c(-c2ccc([N+](=O)[O-])cc2)oc2ccccc12; test system = diabetic rat; conditions = 5 mg/kg, day 7, p-nitrophenyl β-glucoside induced; measurement = blood glucose; result = 339 ± 4.9 mg/dL
SMILES = CC(=O)N[C@@H](CC(N)=O)C(=O)NCC(=O)N[C@@H](C)C(=O)N[C@@H](C)C(N)=O; test = 1H NMR; test system = sodium phosphate buffer 50 mM; conditions = pH 7.4, 46 °C; measurement = rate constant succinimide to β-Asp; result = 1.08 h⁻¹
SMILES = Cc1nc(C)c(C=[N+]([O-])C(C)(C)C)nc1C; test = immunofluorescence, measured: 8-OHdG; test system = MPTP mouse model, substantia nigra; conditions = 30 mg/kg; scale = relative to: sham; measurement = fluorescence intensity; result = 166 ± 6.84%
SMILES = COc1cc(CN2CCN(c3ccc(C(F)(F)F)cc3)CC2)c2cc3[n+](cc2c1O)CCc1cc2c(cc1-3)OCO2; test = ABTS scavenging, absorbance; conditions = 10 min; measurement = IC50; result = 8.07 µg/mL
SMILES = Cc1ccc(C2=C(c3ccc([18F])cc3)C(=O)OC2(C)C)cc1; test = PET/CT; test system = mouse, SK-OV-3 xenograft, leg muscle; conditions = intraperitoneal, 1 h; measurement = normalized muscle uptake; result = 0.24 ± 0.2
SMILES = CCOc1ccc(C[C@@H]2NC(=O)[C@@H](N)CSSC[C@@H](C(=O)N3CCC[C@H]3C(=O)N[C@@H](CC(C)C)C(=O)NCC(N)=O)NC(=O)[C@H](CC(N)=O)NC(=O)[C@H](CCC(N)=O)NC(=O)[C@H]([C@@H](C)CC)NC2=O)cc1; test = antagonist; test system = Bufo marinus urinary bladder; conditions = together with: oxytocin; measurement = pA2; result = 6.85
SMILES = CSCC[C@@H]1NC(=O)[C@H](C)NC(=O)[C@H]([C@@H](C)O)NC(=O)CNC(=O)[C@H](CC(C)C)NC(=O)[C@H](CCC(N)=O)NC(=O)[C@H](CCCNC(=N)N)NC(=O)[C@@H]2CSSC[C@@H]3NC(=O)[C@@H]4CCCN4C(=O)[C@H](C(C)C)NC(=O)[C@H](CCC(N)=O)NC(=O)[C@H](CCC(N)=O)NC(=O)CNC(=O)[C@H](CC(C)C)NC(=O)[C@@H]4CSSC[C@H](NC(=O)[C@H]([C@@H](C)O)NC(=O)[C@H](C)NC(=O)[C@H](CSSC[C@@H](C(=O)N[C@@H](CO)C(=O)N[C@@H](CCC(N)=O)C(=O)N[C@H](C(N)=O)[C@@H](C)O)NC(=O)[C@@H]5CCCN5C(=O)[C@H](CC(N)=O)NC1=O)NC(=O)[C@@H]1CCCN1C(=O)[C@H](CC(=O)O)NC(=O)[C@H](CSSC[C@H](NC(=O)[C@H](CCCNC(=N)N)NC(=O)[C@H](CCCNC(=N)N)NC(=O)[C@H](CO)NC(=O)[C@@H](N)CO)C(=O)N[C@@H](C(C)C)C(=O)N[C@@H](CCCNC(=N)N)C(=O)N[C@@H](CC(C)C)C(=O)N[C@@H](Cc1c[nH]cn1)C(=O)N[C@@H](CCC(=O)O)C(=O)N[C@@H](CO)C(=O)N4)NC3=O)C(=O)N[C@@H](Cc1ccc(O)cc1)C(=O)N[C@H]1CSSC[C@H](NC(=O)[C@H](Cc3ccccc3)NC(=O)[C@H](C)NC(=O)[C@H](CC(N)=O)NC(=O)[C@H](Cc3ccccc3)NC(=O)[C@H](Cc3ccccc3)NC(=O)[C@H](CCCNC(=N)N)NC1=O)C(=O)N[C@@H](Cc1ccc(O)cc1)C(=O)N2; test system = Long-Evans rat, male; conditions = intracerebroventricular, 1.0 nmol in 1.0 µL, 24 h, non-cumulative; scale = relative to: saline; measurement = food intake; result = 97.7 ± 10.1 % above saline
SMILES = COc1ccc2c(c1)c(CC(=O)OCOC(C)=O)c(C)n2C(=O)c1ccc(Cl)cc1; test = hot plate test; test system = BALB/c mice; conditions = 75 mg/kg, 60 min; measurement = latency of nociceptive response; result = 16.1 ± 1.71 s
SMILES = CC(C)C[C@H](NC(=O)[C@H](CO)NC(=O)[C@H](CCCNC(=N)N)NC(=O)[C@H](CC(=O)O)NC(=O)[C@H](CCC(=O)O)NC(=O)[C@H](C)NC(=O)[C@@H]1CCCN1C(=O)[C@H](C)NC(=O)[C@H](CCC(=O)O)NC(=O)[C@@H]1CCCN1C(=O)[C@@H]1CCCN1)C(N)=O; tested on = dopamine system; test system = rhesus monkey, contralateral caudate nucleus; conditions = intranasal, dose not given, repeated dose escalation; scale = relative to: vehicle; measurement = DOPAC level reduction; result = 54%
SMILES = O=C1c2c(O)cc(O)c(-c3ccc(O)c(O)c3)c2OC1Cc1ccc(O)c(O)c1 (stereo not shown); test = DPPH scavenging, absorbance; measurement = EC50; result = 60 µM
SMILES = Cc1cc(O)c(C=O)c2c1C(=O)Oc1c(CO)c(O)c3c(c1O2)C(O)OC3=O (stereo not shown); test = copulatory behaviour test; test system = rat, male, streptozotocin-induced diabetes; conditions = 5 mg/kg, day 63; measurement = post-ejaculatory interval; result = 1400 ± 120 s
SMILES = O=C1c2c(cc(O)c3c2oc2cc(O)c(O)cc23)OC1Cc1ccccc1 (stereo not shown); test = DPPH scavenging, absorbance; measurement = EC50; result = 130 µM
SMILES = CC[C@H](C)[C@H](NC(=O)[C@H](CCC(=O)O)NC(=O)[C@H](C)NC(=O)[C@@H](NC(=O)[C@H](Cc1c[nH]cn1)NC(=O)[C@@H](NC(=O)[C@H](CCC(=O)O)NC(=O)[C@H](C)NC(=O)[C@@H](NC(=O)[C@H](CC(C)C)NC(=O)[C@H](CCCCN)NC(=O)[C@H](Cc1c[nH]cn1)NC(=O)[C@H](CC(C)C)NC(=O)[C@H](Cc1ccccc1)NC(=O)[C@H](C)NC(=O)[C@H](CCCNC(=N)N)NC(=O)[C@H](CCCNC(=N)N)NC(=O)[C@H](CCCNC(=N)N)NC(=O)[C@H](C)NC(=O)[C@H](CC(=O)O)NC(=O)[C@H](CCC(N)=O)NC(=O)[C@@H](NC(=O)[C@H](Cc1c[nH]c2ccccc12)NC(=O)[C@H](CCCCN)NC(=O)[C@H](C)NC(=O)[C@H](CCCNC(=N)N)NC(=O)[C@H](CCC(N)=O)NC(=O)[C@H](Cc1c[nH]cn1)NC(=O)[C@H](CCSC)NC(=O)[C@H](CC(C)C)NC(=O)[C@H](CCC(N)=O)NC(=O)[C@@H](NC(=O)[C@H](CCC(=O)O)NC(=O)[C@H](C)NC(=O)[C@@H](NC(=O)[C@H](C)N)C(C)C)[C@@H](C)CC)[C@@H](C)CC)[C@@H](C)CC)[C@@H](C)CC)[C@@H](C)O)C(=O)O; test system = cynomolgus monkey, serum; conditions = subcutaneous, 0.5 and 1.0 nmol/kg, 24 h; measurement = peak serum calcium; result = ~13 mg/dL
SMILES = CC1=C(O)C(=O)C=C2C1=CC=C1[C@@]2(C)CC[C@@]2(C)[C@@H]3C[C@](C)(C(=O)NCCOCCOCCOCCOCC(=O)N[C@H](C(=O)N4C[C@H](O)C[C@H]4C(=O)N[C@@H](C)c4ccc(-c5scnc5C)cc4)C(C)(C)C)CC[C@]3(C)CC[C@]12C; test = flow cytometry; test system = mouse, B16-F10 melanoma model, tumour; conditions = ip, 2 doses of 1.8 mg/kg, day 7, dosed days 1 and 4; measurement = tumour-infiltrating B cells (B220+); result = 30.1%
SMILES = COc1cc(CNC(=O)C[C@H](C)CCC=C(C)C)ccc1OCc1cn(-c2cccc(C(F)(F)F)c2)nn1; tested on = RXF 393; test = SRB; conditions = 10 µM, 48 h; measurement = growth percent; result = 88.3%
SMILES = COC(=O)C(Cc1c[nH]cn1)NC(=O)C1(C)C(O)CCC2(C)C1CCC1(C)C2CC=C2C3C(C)C(C)CCC3(C)CCC21C (stereo not shown); test system = rat TNBS-induced colitis; conditions = oral, dose not given, day 8; scale = direction not given; measurement = clinical activity score; result = 2.11 ± 0.5
SMILES = COc1ccc(-c2oc3ccccc3c(=O)c2OCc2ccccc2)cc1; test system = diabetic rat; conditions = 7.5 mg/kg, day 21, p-nitrophenyl β-glucoside induced; measurement = blood glucose; result = 159 ± 4.14 mg/dL
SMILES = O=C(O)c1ccc2[nH]cc(-c3ccc4cc(O)ccc4c3)c2c1; test = Aβ plaque burden, immunohistochemistry; test system = APP/PS1 mice, cortex; conditions = dose not given; measurement = reduction; result = 30%
SMILES = O=c1c(OCc2ccccc2)c(-c2cccc([N+](=O)[O-])c2)oc2ccccc12; test system = diabetic rat; conditions = 7.5 mg/kg, day 28, p-nitrophenyl β-glucoside induced; measurement = blood glucose; result = 148 ± 3.98 mg/dL
SMILES = COc1ccc(C2CC(c3ccc(C)cc3)=Nc3ccccc3S2)cc1OC (stereo not shown); test system = Wistar rat, STZ-induced diabetes, serum; conditions = 20 mg/kg, 28 days; measurement = alkaline phosphatase; result = 198 IU/L
SMILES = CC[C@H]1[C@@H](O)[C@@H]2[C@H](CC[C@]3(C)[C@@H]([C@H](C)CCOS(=O)(=O)[O-])CC[C@@H]23)[C@@]2(C)CC[C@@H](O)C[C@@H]12.[Na+]; test = immunohistochemistry, measured: galectin-3; test system = ob/ob NASH mouse model, liver; conditions = 10 mg/kg, 16 weeks; measurement = fractional area; result = 2.9 ± 0.1%
SMILES = O=C1CC(c2ccc(O)cc2)Oc2cc3oc4cc(O)c(O)cc4c3c(O)c21 (racemic); test = DPPH scavenging, absorbance; measurement = EC50; result = 120 µM
SMILES = C=C(c1ccc(C(=O)O)c(F)c1)c1cc2c(cc1C)C(C)(C)C=CC2(C)C; test = RNA sequencing, measured: Cav1 mRNA; test system = rat, brain; conditions = dose not given, 24 h, single dose; scale = relative to: vehicle; measurement = log2 fold change; result = 0.63
SMILES = COc1ccc(C2CC(c3ccc(C)cc3)=Nc3ccccc3S2)cc1 (stereo not shown); test system = Wistar rat, STZ-induced diabetes, serum; conditions = 10 mg/kg, 28 days; measurement = triglycerides; result = 142 ± 4.39 mg/dL
SMILES = CCN(CC)CCSc1nnc(C23CC4CC(CC(C4)C2)C3)n1C; test = paw oedema; test system = rat; conditions = intraperitoneal, 20 mg/kg; measurement = inhibition in vivo; result = -1.42%
SMILES = CC[C@H](C)[C@@H]1NC(=O)[C@H](Cc2ccccc2)NC(=O)[C@H](CCC(=O)O)NC(=O)[C@H](CCCNC(=N)N)NC(=O)CNC(=O)[C@@H](NC(=O)[C@H](CC(C)C)NC(=O)[C@H](CCCNC(=N)N)NC(=O)[C@@H](NC(=O)CNC(=O)[C@H](Cc2ccc(O)cc2)NC(=O)[C@@H]2CCCN2C(=O)[C@H](C)NC(=O)[C@H](C)NC(=O)[C@@H](N)CCCNC(=N)N)C(C)C)CSSC[C@@H]2NC(=O)[C@@H](NC(=O)[C@H](CO)NC(=O)[C@H](CO)NC(=O)[C@H](CO)NC(=O)[C@H](CC(C)C)NC(=O)CNC(=O)[C@H](C)NC(=O)[C@H](CC(C)C)NC(=O)[C@@H](NC(=O)[C@@H](N)CC(=O)O)C(C)C)CSSC[C@H](NC(=O)CNC(=O)[C@H](Cc3c[nH]c4ccccc34)NC(=O)[C@H](CCCCN)NC2=O)C(=O)N[C@@H](CO)C(=O)N[C@@H](CCCCN)C(=O)N[C@@H](CO)C(=O)N[C@@H](CCC(=O)O)C(=O)N[C@@H]([C@@H](C)CC)C(=O)N[C@@H](CO)C(=O)N[C@@H](CO)C(=O)N[C@@H](CC(C)C)C(=O)N[C@H](C(=O)O)CSSC[C@@H](C(=O)NCC(=O)NCC(=O)N[C@@H](CO)C(=O)N[C@@H](CCCNC(=N)N)C(=O)N[C@@H](Cc2c[nH]c3ccccc23)C(=O)O)NC(=O)[C@H]([C@@H](C)O)NC(=O)[C@H](Cc2ccccc2)NC(=O)[C@H]([C@@H](C)CC)NC(=O)[C@H](C(C)C)NC(=O)[C@H](C)NC(=O)[C@H](CCCNC(=N)N)NC1=O; test system = satiated male Sprague-Dawley rats; conditions = intracerebroventricular, 0.1 nmol, 0 to 1 h, early light phase; measurement = food intake; result = 3.74 ± 0.1 g
SMILES = CCc1nnc(NS(=O)(=O)c2ccc(NC(=S)NC(=O)/C=C/c3ccc(F)cc3)cc2)s1; test = cell proliferation; test system = athymic nude mice, SK-N-AS xenograft, tumour; conditions = i.p., 10 mg/kg daily, 18 days; measurement = reduction of Ki-67 staining; result = 25%
